Experimental data from different studies.
Every numbered part comes from another study and shows a few of its results, in no order. Several values in a cell are separate wells, animals, samples, runs or records.

Sample 1
Compound: COc1ccc(-c2c(Nc3ccccn3)[nH]c3c(C4=CCCCC4)c(-c4ccccc4)nn3c2=O)cc1
Medium: plasma
Measurement: geometric mean concentration
refers to: methionine; human patients; 150 mg once daily, 2 h: 126000 ng/mL
LC-MS/MS, refers to: S-adenosylmethionine; oral, 200 mg twice daily, 0 h, cycle 1 day 1: 10.4 ng/mL
refers to: S-adenosylmethionine; human patients; 150 mg once daily, 2 h: 19.9 ng/mL
refers to: methionine; human patients; 200 mg once daily, 2 h: 105000 ng/mL
refers to: methionine; human patients; 400 mg once daily, 8 h: 79500 ng/mL
LC-MS/MS, refers to: S-adenosylmethionine; oral, 200 mg twice daily, 8 h, cycle 1 day 1: 11.5 ng/mL
refers to: methionine; human patients; 200 mg once daily, 8 h: 107000 ng/mL
LC-MS/MS, refers to: S-adenosylmethionine; oral, 50 mg once daily, 0 h, cycle 1 day 1: 22.8 ng/mL
refers to: S-adenosylmethionine; human patients; 200 mg once daily, 2 h: 13.8 ng/mL
refers to: methionine; human patients; 400 mg once daily, 6 h: 78600 ng/mL
refers to: S-adenosylmethionine; human patients; 100 mg once daily, 8 h: 20.3 ng/mL
refers to: S-adenosylmethionine; human patients; 100 mg once daily, 0 h: 18 ng/mL
refers to: S-adenosylmethionine; human patients; 200 mg once daily, 6 h: 14.5 ng/mL

Sample 2
Cell line: normal-adjacent epithelial organoid
Observed: cell viability
Method: CellTiter-Glo
Species: human
Medium: patient-derived organoid
Tested at: 1 µM
Relative to: DMSO
Measurement: viability
CC(=O)N1CCC(c2ccc(C(=O)NC(=N)N)cc2C(F)(F)F)CC1: 91.5% and 90.4%
Cc1nc(N2CC[C@@H](O)C2)ncc1-c1cc(C(F)(F)F)cc2[nH]ncc12: 81.3% and 98%
CC(=O)C1=C(C)N(c2cccc(C(F)(F)F)c2)C(=O)N[C@H]1c1ccc(C#N)nc1: 109% and 108%
Cc1ccccc1Oc1cc(-n2c(=O)cc(C(F)(F)F)[nH]c2=O)c2ccccc2c1Cl: 106%
CCc1ccccc1C(=O)Nc1n[nH]c2c(C)c(F)c(C3C(C#N)=C(C)N(C)C(C)=C3C#N)cc12: 84.8%
CC(=O)c1c(NS(C)(=O)=O)c2cc(-c3ccc(Cl)cc3)c(-c3ccc(Cl)cc3Cl)nc2n(C)c1=O: 109% and 132%
CN(C(=O)c1ccccc1)c1cc(N(C)c2ccc3c(c2)CCc2ccc(C(=O)NCCN4CCOCC4)cc2C3=O)ccc1F: 98.6%
O=C(N1CCS(=O)(=O)CC1)N1C[C@H](c2ccc(OC(F)(F)F)cc2)C[C@H](c2nc(C3CC3)no2)C1: 110% and 109%
CC1=C(C#N)C(c2ccc3[nH]nc(C)c3c2)C(C#N)=C(C)N1: 104% and 88%
CCNC(=O)c1cc2c(N3CCOC[C@@H]3C)ccnc2[nH]1: 111% and 101%
c1ccc(N2CCN(Cc3nc4ccccc4[nH]3)CC2)nc1: 84.3% and 96%
Cc1c(N2CCNCC2)nc2ccc(Br)cc2c1C(=O)NC[C@H](CCC(=O)O)c1ccccc1Cl: 127%
O=C(NCCN1CCOCC1)c1ccc2c(c1)C(=O)c1ccc(Nc3ccc(F)c(NC(=O)c4ccccc4)c3)cc1CC2: 94.6%
O=C(NC[C@@H]1[C@H]2CN(C(=O)OCc3cc(C(F)(F)F)cc(C(F)(F)F)c3)C[C@@H]12)c1ccc2[nH]nnc2c1: 99.7%
CN([C@@H]1CCc2c(CC(=O)O)c3ccccc3n2C1)S(=O)(=O)c1ccc(F)cc1: 94% and 114%
Cc1c(N2CCCC2)nc2ccc(Br)cc2c1C(=O)NC[C@H](CCC(=O)O)c1ccccc1Cl: 118%

Sample 3
Cell line: mouse MPNST tumor cells
Method: high-content immunofluorescence imaging
Refers to: nuclear SOX9
Tested at: 10 µM
Time: 12 h
Notes: mean of 2 replicates
Relative to: DMSO control
Reading: higher = more nuclear SOX9
Measurement: nuclear SOX9 intensity
CN1CCC(=C2c3ccccc3CC(=O)c3sccc32)CC1: 134 % of DMSO
NC(=O)N1c2ccccc2C=Cc2ccccc21: 89.6 % of DMSO and 99.9 % of DMSO
CC(C)(C)CC(C)(C)c1ccc(OCOCCOCCO)c(Cc2cc(C(C)(C)CC(C)(C)C)cc(Cc3cc(C(C)(C)CC(C)(C)C)ccc3OCOCCOCCO)c2OCOCCOCCO)c1: 106 % of DMSO
C#C[C@]1(O)CC[C@H]2[C@@H]3CCC4=CCCC[C@@H]4[C@H]3CC[C@@]21C: 103 % of DMSO
COCCN(C(=O)c1cc(OC)c(OC)c(OC)c1)c1nc(-c2ccccc2)cs1: 104 % of DMSO
COc1cc(-c2cc(-c3cccc(O)c3)cnc2N)cc(OC)c1OC: 207 % of DMSO
COc1c(C)cc(NC(=O)c2nn(Cc3ccc(F)cc3)c3c2CN(C(=O)c2ccc[nH]2)C[C@]3(C)C(N)=O)cc1C: 107 % of DMSO
Cc1ccc(S(=O)(=O)NC(=O)NN2CCCCCC2)cc1: 119 % of DMSO
COC(=O)[C@@H]1[C@H]2C[C@H]3c4[nH]c5ccccc5c4CCN3C[C@@H]2CC[C@@H]1O: 91 % of DMSO
O=C1CCc2ccc(OCCCCN3CCN(c4cccc(Cl)c4Cl)CC3)cc2N1: 106 % of DMSO and 178 % of DMSO and 206 % of DMSO

Sample 4
Target: Diamine acetyltransferase 1 (Homo sapiens, UniProt P21673)
Action: inhibitor
Tested at: 10 µM
Relative to: control
Measurement: remaining activity
Target sequence (P21673 1-171): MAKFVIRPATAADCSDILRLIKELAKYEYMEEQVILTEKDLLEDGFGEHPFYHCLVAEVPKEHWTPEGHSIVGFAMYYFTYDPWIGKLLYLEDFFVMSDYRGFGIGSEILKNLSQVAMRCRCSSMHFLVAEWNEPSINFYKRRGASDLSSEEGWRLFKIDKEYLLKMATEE
C=C1C(=O)O[C@H]2C1CC[C@@](C)(O)C13C=CC(C)(C21)C1(C3)C(=O)O[C@@H]2C3C(C)=CCC3[C@](C)(O)[C@H](OC(C)=O)CC21 (some centres unmarked): 89.3%
CC(=O)OCC1=C[C@H](O)[C@@H]2C(C(=O)O)=CO[C@@H](O[C@@H]3O[C@H](CO)[C@@H](O)[C@H](O)[C@H]3O)[C@H]12: 115%
CCCCCCCCCCCC(=O)O: 86.1%
CC1(C)[C@@H]2CC[C@@]1(C)C(=O)C2: 103%
O=C1c2c(O)cc(O)cc2O[C@H](c2ccc(O)c(O)c2)[C@H]1O: 93.8%
COc1c(O)cc(O)c2c(=O)cc(-c3ccccc3)oc12: 102%
O=C(O)C[C@H](O)C(=O)O: 88.3%
COc1cc(/C=C/C=O)ccc1O: 104%
COc1ccc2ccc(=O)oc2c1CC=C(C)C: 103%
C=CCc1ccc(O)c(OC)c1: 95.9%
O=c1c2cc(O)c(O)cc2oc2cc(O)c([C@@H]3O[C@H](CO)[C@@H](O)[C@H](O)[C@H]3O)c(O)c12: 84.6%

A few entries again (sample 3):
O=C1CCc2ccc(OCCCCN3CCN(c4cccc(Cl)c4Cl)CC3)cc2N1: 106 % of DMSO and 178 % of DMSO and 206 % of DMSO
C#C[C@]1(O)CC[C@H]2[C@@H]3CCC4=CCCC[C@@H]4[C@H]3CC[C@@]21C: 103 % of DMSO
COc1c(C)cc(NC(=O)c2nn(Cc3ccc(F)cc3)c3c2CN(C(=O)c2ccc[nH]2)C[C@]3(C)C(N)=O)cc1C: 107 % of DMSO
COCCN(C(=O)c1cc(OC)c(OC)c(OC)c1)c1nc(-c2ccccc2)cs1: 104 % of DMSO
CN1CCC(=C2c3ccccc3CC(=O)c3sccc32)CC1: 134 % of DMSO
Cc1ccc(S(=O)(=O)NC(=O)NN2CCCCCC2)cc1: 119 % of DMSO
NC(=O)N1c2ccccc2C=Cc2ccccc21: 89.6 % of DMSO and 99.9 % of DMSO
COC(=O)[C@@H]1[C@H]2C[C@H]3c4[nH]c5ccccc5c4CCN3C[C@@H]2CC[C@@H]1O: 91 % of DMSO
